Measured values of several laboratories.
Protocols differ between the studies behind these lines. “And” joins repeats or separate records; there may be more than shown. ± marks the error that the study gave.
Chain of UniProt P05771 (whole entry, looked up): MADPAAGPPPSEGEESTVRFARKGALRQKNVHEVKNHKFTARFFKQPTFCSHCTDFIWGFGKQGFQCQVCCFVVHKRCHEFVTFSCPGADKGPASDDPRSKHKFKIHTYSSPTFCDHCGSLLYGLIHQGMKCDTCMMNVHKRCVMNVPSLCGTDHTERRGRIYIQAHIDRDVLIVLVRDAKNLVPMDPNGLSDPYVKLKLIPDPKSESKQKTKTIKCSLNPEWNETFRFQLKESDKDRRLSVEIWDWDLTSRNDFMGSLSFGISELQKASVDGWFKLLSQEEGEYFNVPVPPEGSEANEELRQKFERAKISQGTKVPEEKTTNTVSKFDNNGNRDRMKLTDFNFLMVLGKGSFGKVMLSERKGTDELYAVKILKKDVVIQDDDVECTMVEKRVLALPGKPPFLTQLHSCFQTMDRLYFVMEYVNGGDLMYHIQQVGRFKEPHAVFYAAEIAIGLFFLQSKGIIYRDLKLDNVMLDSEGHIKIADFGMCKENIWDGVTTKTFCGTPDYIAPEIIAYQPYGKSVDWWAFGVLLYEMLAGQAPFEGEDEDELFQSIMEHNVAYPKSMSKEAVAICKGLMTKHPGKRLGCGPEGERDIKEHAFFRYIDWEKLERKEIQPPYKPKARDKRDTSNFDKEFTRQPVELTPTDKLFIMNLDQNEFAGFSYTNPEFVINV
Chain of UniProt Q9UM07 (whole entry, looked up): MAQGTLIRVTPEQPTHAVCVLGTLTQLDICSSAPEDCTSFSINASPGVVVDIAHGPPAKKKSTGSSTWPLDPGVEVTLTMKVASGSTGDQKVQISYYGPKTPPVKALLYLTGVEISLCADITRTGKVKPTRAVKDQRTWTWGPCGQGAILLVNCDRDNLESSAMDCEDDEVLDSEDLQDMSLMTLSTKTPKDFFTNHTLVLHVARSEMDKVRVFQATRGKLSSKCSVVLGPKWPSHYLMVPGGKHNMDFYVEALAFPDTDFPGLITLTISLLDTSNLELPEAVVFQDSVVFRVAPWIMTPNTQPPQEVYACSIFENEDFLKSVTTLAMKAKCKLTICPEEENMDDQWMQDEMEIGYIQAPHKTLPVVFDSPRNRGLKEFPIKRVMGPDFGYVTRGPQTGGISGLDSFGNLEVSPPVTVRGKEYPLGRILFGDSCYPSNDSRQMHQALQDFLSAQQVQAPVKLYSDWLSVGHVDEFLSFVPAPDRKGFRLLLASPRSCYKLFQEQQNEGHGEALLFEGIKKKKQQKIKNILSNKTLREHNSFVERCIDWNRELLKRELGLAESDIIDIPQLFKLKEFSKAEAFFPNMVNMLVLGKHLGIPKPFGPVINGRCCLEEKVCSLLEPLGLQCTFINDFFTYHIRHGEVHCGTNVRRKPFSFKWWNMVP

COc1ccccc1-c1n[nH]c2nc(N[C@H]3CC[C@H](NS(=O)(=O)CC(C)C)CC3)ncc12
relative abundance (bead binding, competition bead pull-down, item: LINJ.29.0790; Leishmania donovani extract; 10 µM; relative to: vehicle): 0.99

CSCC[C@H](N)C(=O)N[C@@H](C)C(=O)N[C@@H](CCCNC(=N)N)C(=O)N[C@@H](CCCNC(=N)N)C(=O)N[C@@H](CC(=O)O)C(=O)N[C@@H](CCCCN)C(=O)N[C@H](C(=O)N[C@@H](CC(=O)O)C(=O)N[C@@H](Cc1ccccc1)C(=O)N[C@@H](C)C(=O)N[C@@H](CCCNC(=N)N)C(=O)N[C@@H](CCCNC(=N)N)C(=O)N[C@@H](CCCNC(=N)N)C(=O)N[C@@H](CCCNC(=N)N)C(=O)NCCCCCC(=O)NCCCCC(NC(=O)CCCCCNC(=O)[C@H](CCCNC(=N)N)NC(=O)[C@H](CCCNC(=N)N)NC(=O)[C@H](CCCNC(=N)N)NC(=O)[C@H](CCCNC(=N)N)NC(=O)[C@H](C)NC(=O)[C@H](Cc1ccccc1)NC(=O)[C@H](CC(=O)O)NC(=O)[C@@H](NC(=O)[C@H](CCCCN)NC(=O)[C@H](CC(=O)O)NC(=O)[C@H](CCCNC(=N)N)NC(=O)[C@H](CCCNC(=N)N)NC(=O)[C@H](C)NC(=O)[C@@H](N)CCSC)[C@@H](C)O)C(=O)NCCCCC(NC(=O)C(CCCCNC(=O)CCCCCNC(=O)[C@H](CCCNC(=N)N)NC(=O)[C@H](CCCNC(=N)N)NC(=O)[C@H](CCCNC(=N)N)NC(=O)[C@H](CCCNC(=N)N)NC(=O)[C@H](C)NC(=O)[C@H](Cc1ccccc1)NC(=O)[C@H](CC(=O)O)NC(=O)[C@@H](NC(=O)[C@H](CCCCN)NC(=O)[C@H](CC(=O)O)NC(=O)[C@H](CCCNC(=N)N)NC(=O)[C@H](CCCNC(=N)N)NC(=O)[C@H](C)NC(=O)[C@@H](N)CCSC)[C@@H](C)O)NC(=O)CCCCCNC(=O)[C@H](CCCNC(=N)N)NC(=O)[C@H](CCCNC(=N)N)NC(=O)[C@H](CCCNC(=N)N)NC(=O)[C@H](CCCNC(=N)N)NC(=O)[C@H](C)NC(=O)[C@H](Cc1ccccc1)NC(=O)[C@H](CC(=O)O)NC(=O)[C@@H](NC(=O)[C@H](CCCCN)NC(=O)[C@H](CC(=O)O)NC(=O)[C@H](CCCNC(=N)N)NC(=O)[C@H](CCCNC(=N)N)NC(=O)[C@H](C)NC(=O)[C@@H](N)CCSC)[C@@H](C)O)C(N)=O)[C@@H](C)O (stereo partly drawn)
tissue distribution (C57BL/6 mouse female, liver; dose not given, 3 h; relative to: total): 8.62% and 9.26% and 6.65%

C/C(=N\OCCCN1CCCCC1)c1ccc(C(F)(F)F)cc1
plasma concentration (C57BL/6 mouse, plasma; intravenous, 5 mg/kg, 4 h): 70 ± 18.2 ng/mL

CCCCCCCCCCCCCCCC(=O)N[C@@H](CCC(=O)NCCOCCOCCC(=O)NCCOCCOCCC(=O)NCCCC[C@H](NC(=O)[C@H](CC(=O)O)NC(=O)[C@H](CC(C)C)NC(=O)[C@H](Cc1ccc(O)cc1)NC(=O)[C@H](CCCCN)NC(=O)[C@H](CO)NC(=O)[C@H](Cc1ccc(O)cc1)NC(=O)[C@H](CC(=O)O)NC(=O)[C@H](CO)NC(=O)[C@@H](NC(=O)[C@H](Cc1ccccc1)NC(=O)[C@@H](NC(=O)CNC(=O)[C@H](CCC(N)=O)NC(=O)[C@@H](CO)NC(=O)[C@@H](N)Cc1c[nH]cn1)[C@@H](C)O)[C@@H](C)O)C(=O)N[C@@H](CCCNC(=N)N)C(=O)N[C@@H](CCCNC(=N)N)C(=O)N[C@@H](C)C(=O)N[C@@H](CCC(N)=O)C(=O)N[C@@H](CC(=O)O)C(=O)N[C@@H](Cc1ccccc1)C(=O)N[C@H](C(=O)N[C@@H](CCC(N)=O)C(=O)N[C@@H](Cc1c[nH]c2ccccc12)C(=O)N[C@@H](CC(C)C)C(=O)N[C@@H](CC(C)C)C(=O)N[C@@H](CC(N)=O)C(=O)N[C@H](C(=O)NCC(=O)NCC(=O)N1CCC[C@H]1C(=O)N[C@@H](CO)C(=O)N[C@@H](CO)C(=O)NCC(=O)N[C@@H](C)C(=O)N1CCC[C@H]1C(=O)N1CCC[C@H]1C(=O)N1CCC[C@H]1C(=O)N[C@@H](CO)C(N)=O)[C@@H](C)O)C(C)C)C(=O)O
total bilirubin (rhesus monkey, male; subcutaneous, 20 µg/kg once daily, 28 days): 4 ± 1.3 µmol/L

C=Cc1c(C)c2cc3nc(c(CC(=O)[O-])c4[n-]c(cc5nc(cc1[n-]2)C(C)=C5CC)c(C)c4C(=O)[O-])C(CCC(=O)[O-])C3C.[Cu+2].[Na+].[Na+].[Na+] (stereo not drawn)
haemoglobin (Wistar rat, female; oral, 250 mg/kg daily, 28 days): 13.9 ± 1.21 g/dL

CC(C)C[C@@H](NC(=O)[C@@H](CCCNC(=N)N)NC(=O)[C@@H](Cc1c[nH]cn1)NC(=O)[C@@H](Cc1c[nH]c2ccccc12)NC(=O)[C@@H](Cc1c[nH]cn1)NC(=O)[C@@H](Cc1ccccc1)NC(=O)[C@H](NC(=O)[C@@H](Cc1ccc(O)cc1)NC(=O)CNC(=O)CNC(=O)CCOCCOCCOCCNC(=O)CN1CCN(CC(=O)O)CCN(CC(=O)O)CC1)[C@H](C)O)C(=O)N[C@H](CC(N)=O)C(=O)N1CCC[C@@H]1C(=O)O [gallium-68 labelled]
absorbed dose (human female, from C57BL/6 mouse, urinary bladder wall): 0.0119 ± 0.000982 mSv/MBq

O=C(c1cc(Cc2n[nH]c(=O)c3ccccc23)ccc1F)N1CC(CNC2CC2)C1
haemoglobin (Wistar Han rat, female, blood; oral, 15 mg/kg daily, 4 weeks): 14.3 ± 0.8 g/dL

C[C@H](O)[C@@H](NC(=O)[C@H]1CCCN1C(=O)[C@@H](CCCCN)NC(=O)[C@@H](CO)NC(=O)[C@@H](Cc1ccc(O)cc1)NC(=O)[C@@H](CC(N)=O)NC(=O)CCOCCOCCOCCNC(=O)CN1CCN(CC(=O)O)CCN(CC(=O)O)CCN(CC(=O)O)CC1)C(=O)N[C@H](CC(=O)O)C(=O)N[C@H](CCCNC(=N)N)C(=O)N[C@H](CCC(N)=O)C(=O)N[C@H](Cc1ccc(O)cc1)C(=O)N[C@H](Cc1c[nH]cn1)C(=O)N[C@H](Cc1ccccc1)C(N)=O [copper-64 labelled]
tissue uptake (C57BL/6J mouse, blood; intravenous, 1.85 MBq, 0.3333 h): 2.34 ± 0.38 %ID/g

CC(=O)N[C@H](C(=O)N[C@@H](CCCC(=O)OC(C)(C)C)C(=O)N[C@@H](CCC1CCCCC1)C(=O)N[C@@H](CC(=O)O)C(=O)COC(=O)c1c(C)cccc1C)C(C)(C)C
blood concentration (C57BL/6N mouse, female, whole blood; intraperitoneal, dose not given, 0.5 h): 772 µM and 656 µM

N[C@H](C(=O)N1CCCC1)C1CCN(c2nccc3c(-c4ncc(Cl)cc4Cl)cccc23)CC1
inhibition (Protein-arginine deiminase type-4 (PADI4, Homo sapiens, UniProt Q9UM07); enzyme activity, GDH-coupled; 60 µM, added: 0.25 mM Ca2+ (low)): 102%

O=C1NC(=O)c2c1c1cc(F)c[n+]3c1c1c2c2cc(O)ccc2[n]1[Ru-4]312([N]=C=S)[S+]3CC[S+]1CC[S+]2CC3 (stereo not drawn)
remaining activity (Protein kinase C beta type, isoform beta-I (PRKCB, Homo sapiens, UniProt P05771); enzyme activity; 100 nM, human enzyme, added: 10 µM ATP; relative to: untreated): 56%

COc1ccccc1-c1n[nH]c2nc(NC3CCN(C(=O)Cc4ccc(F)cc4F)CC3)ncc12
relative abundance (bead binding, competition bead pull-down, item: LINJ.29.0950; Leishmania donovani axenic amastigote extract; 10 µM; relative to: vehicle): 0.91

COc1ccc([C@@H]2CC(=O)c3c(O)cc(O[C@@H]4O[C@H](CO)[C@@H](O)[C@H](O)[C@H]4O[C@@H]4O[C@@H](C)[C@H](O)[C@@H](O)[C@H]4O)cc3O2)cc1O
faecal excretion (Sprague-Dawley rat, male, lean, faeces; oral, 100 mg/kg, 24-36 h): 85.6 ± 84 ng

CC[C@H](C)[C@H](NC(=O)[C@H](CCCCN)NC(=O)CNC(=O)[C@H](CC(C)C)NC(=O)[C@H](Cc1ccccc1)NC(=O)[C@H](CCCCN)NC(=O)[C@H](CO)NC(=O)[C@H](Cc1ccccc1)NC(=O)[C@H](Cc1c[nH]c2ccccc12)NC(=O)[C@H](CCC(N)=O)NC(=O)[C@@H](NC(=O)[C@H](Cc1ccccc1)NC(=O)CCCCCNC(=O)CN1CCN(CC(=O)O)CCN(CC(=O)O)CCN(CC(=O)O)CC1)C(C)C)C(=O)N[C@@H](CCC(=O)O)C(=O)N1CCC[C@H]1C(=O)N[C@H](CC(=O)O)C(=O)N[C@H](C(=O)N[C@@H](CO)C(=O)N[C@@H](CCC(N)=O)C(=O)N[C@H](C(=O)N[C@@H](CCC(N)=O)C(=O)N[C@@H](CC(=O)O)C(=O)N1CCC[C@H]1C(=O)N[C@@H](CC(N)=O)C(=O)N[C@@H](CC(=O)O)C(=O)N[C@@H](CCC(N)=O)C(=O)N[C@@H](Cc1ccc(O)cc1)C(=O)N[C@@H](CCC(=O)O)C(=O)N1CCC[C@H]1C(=O)N[C@@H](Cc1ccccc1)C(=O)O)C(C)C)C(C)C [copper-64 labelled]
tissue uptake (female mice, EMT6 tumour-bearing, blood; 2 h, uncleavable control tracer, vehicle-treated): 2.11 ± 0.12 %ID/g

O=C1NC2(CC2)COc2ncc(F)cc2[C@H]2COCCN2c2ccn3ncc1c3n2
organ-to-body weight ratio (Sprague-Dawley rat, male, liver; oral, 20 mg/kg/day, 4 weeks dosing, end of recovery): 2.97 ± 0.476%

CS(C)(=O)=Nc1ccc(-c2ccc(-c3nc4cc(O[C@@H]5CO[C@H]6[C@@H]5OC[C@H]6O)[nH]c4cc3F)cc2)cc1
inhibition (Protein kinase C gamma type (PRKCG, Homo sapiens, UniProt P05129); enzyme activity, inhibitor; 10 µM): 1%

CC(C)[C@@H]1NC(=O)CNC(=O)[C@H](CC(N)=O)NC(=O)[C@H](CCCNC(=N)N)NC(=O)[C@H](Cc2ccc(O)cc2)NC(=O)[C@H](C(C)C)NC(=O)[C@@H](NC(=O)[C@@H](NC(=O)[C@H](CC(N)=O)NC(=O)[C@H](Cc2c[nH]c3ccccc23)NC(=O)[C@H](C)NC(=O)[C@H](Cc2ccccc2)NC(=O)CNC(=O)[C@H](CCCCN)NC(=O)[C@H](Cc2ccccc2)NC(=O)[C@H](Cc2ccccc2)NC(=O)[C@H](CCCCN)NC(=O)OCC2c3ccccc3-c3ccccc32)C(C)C)CSSC[C@@H](C(=O)N[C@@H](Cc2c[nH]cn2)C(=O)N[C@@H](CCCNC(=N)N)C(=O)N[C@@H](CCCNC(=N)N)C(=O)N[C@@H](C)C(=O)N[C@@H](CC(N)=O)C(N)=O)NC(=O)[C@H](C(C)C)NC(=O)[C@H](CCCNC(=N)N)NC1=O
phosphorus (ICR mice, serum; intraperitoneal, 10 mg/kg, day 5): 3.37 ± 0.18 mmol/L

CC(C)(C)C(=O)OCOP(=O)(OCOC(=O)C(C)(C)C)C1CCCN(O)C1=O (stereo not drawn)
Log10LC50 (LOX IMVI): > -4 log M
